# Measured values gathered from unrelated publications.
# Compare with care: the assays were run in different laboratories. ± marks the error that the study gave.
Structure (SMILES),cell line,test,conditions,IC50 [nM]
C[C@H](c1ccccc1)N1C(=O)C2=Nc3ccc(F)cc3CN2C1=S,healthy human PBMCs,"cell viability, resazurin",,1500 ± 20
Cc1cnc2nc1Nc1cccc(c1)COCc1cc(ccc1OCCN1CCOCC1)N2,SET-2,"cell growth or viability, CCK-8",,16100
CC(C)(C)c1cnc(CSc2cnc(NC(=O)C3CCN(C(=O)CCCCCCN4Cc5cc6c(cc5C4)C(=O)N(C4CCC(=O)NC4=O)C6=O)CC3)s2)o1 (centres unmarked),NALM-6,"cell growth or viability, MTT",,51.8
CCC(=CCc1c(O)cc2c(c1O)C(=O)CC(c1cc(O)ccc1OC)O2)CC (centres unmarked),normal pig cell line,"cytotoxicity, MTT",48 h,20600 ± 2600
O=C(Nc1ccc(C(=O)Nc2ccc3[nH]ncc3c2)c(Cl)c1)Nc1cc(C(F)(F)F)ccc1F,KM12,"cell growth or viability, ATP luminescence",72 h,> 50000
C[C@H](c1ccccc1)N1C(=O)C2=Nc3cc(Cl)ccc3CN2C1=S,healthy human PBMCs,"cell viability, resazurin",,2300 ± 700
CCC(=CCc1c(O)cc2c(c1O)C(=O)CC(c1ccc(O)cc1)O2)CC (centres unmarked),normal pig cell line,"cytotoxicity, MTT",48 h,> 120000
CC(C)c1ccc(N(C)c2ccc3c(c2)OCC[C@H]3CNc2cnccc2C(=O)O)cc1,HuTu80,"cell growth or viability, ATP luminescence",7 days,4.36
CCn1nc(Cl)c2c1-c1cnc(N)c(c1)O[C@H](C)c1cc(F)ccc1-c1nn(C)cc1C2,ALK-fusion cell lines,cell viability,,< 1.5
Cc1ccc([N+](=O)[O-])cc1S(=O)(=O)N(C)/N=C/c1cnc2ccc(Br)cn12,KM12,"cell viability, MTS",,6
CN1CCC(N[C@@H]2CCc3[nH]c4c(C(N)=O)ccc(-c5ccccc5Cl)c4c3C2)CC1,NCI-H446,cell proliferation,96 h,3.8
CCOc1cncc(-c2ccc(NC(=O)C3(c4ccnc(NS(=O)(=O)C5CC5)n4)CCOCC3)nc2)n1,SCLC-21H,"cell growth or viability, ATP luminescence",72 h,10000
O=C(NCc1cc(F)cc(F)c1)[C@@]1(O)CCN(c2ccc3[nH]ccc3c2)C1=O,PAXF546,colony formation,,10000
CNS(=O)(=O)Nc1nccc(Cc2c(C)c3ccc(Oc4ncccc4F)cc3oc2=O)c1F,MDA-MB-436,cell viability,7 days,> 1000
Nc1nc2cnc(C(=O)N3CCOC[C@@H]3c3ccc(C(F)(F)F)cc3)cc2c2c1COC2,HCT-116 MTAP-deleted,"global SDMA level, refers to: SDMA",72 h,0.9
O=C(O)c1ccc(-c2ccc(O)cc2)c2c1C=C(c1ccc(O)cc1)OC2(c1ccc(O)cc1)c1ccc(O)cc1,MGC-803,"cell growth or viability, MTT",48 h,8730
O=C(Nc1ccc(C(=O)Nc2ccc3[nH]nc(-c4ccccc4)c3c2)c(C(F)(F)F)c1)Nc1cc(C(F)(F)F)ccc1F,KM12,"cell growth or viability, ATP luminescence",72 h,> 50000

# For quick reference, copied from above:
Structure (SMILES),cell line,test,conditions,IC50 [nM]
CN1CCC(N[C@@H]2CCc3[nH]c4c(C(N)=O)ccc(-c5ccccc5Cl)c4c3C2)CC1,NCI-H446,cell proliferation,96 h,3.8
CCOc1cncc(-c2ccc(NC(=O)C3(c4ccnc(NS(=O)(=O)C5CC5)n4)CCOCC3)nc2)n1,SCLC-21H,"cell growth or viability, ATP luminescence",72 h,10000
